# Experimental data pooled from the literature.
# Lines come from different studies, so protocols differ. Several values in a cell are separate wells, animals, samples, runs or records. Numbers after ± are the reported error.
SMILES,assay,test system,conditions,how to read,measurement,value
N#Cc1ccc2c(CN3CCOCC3)cc(-c3ccc([C@H]4CCC(=O)N4)cc3)nc2c1,"decreased, refers to: Ccl2","BTBR ob/ob mice, male, diabetic wound model, wound tissue","dose not given, 21 days",baseline: vehicle,mRNA level,decreased
O=C1Nc2cc3[nH]nc(-c4ccncc4)c3cc2CN1Cc1ccccc1,RECIST v1.1,"human, relapsed or refractory advanced solid tumours","intravenous, 6.4 mg/kg",,"complete response, best response",0%
c1ccc(-c2n[nH]cc2-c2ccnc3ccccc23)nc1,"kinase binding, competitor, MIB/MS competition, refers to: RIM11",Candida albicans cell lysate,1 µM,baseline: DMSO,log2 fold change,1.39
Cc1cc(F)cc2c(CCC(=O)N[C@@H]3C(=O)NC[C@H]3O)c(-c3ccc(F)cc3)[nH]c12,,"APOL1 G2 mice, IFNγ-induced","30 mg/kg twice daily, day 12",,urine albumin/creatinine ratio,701 µg/mg and 3110 µg/mg and 143 µg/mg and 118 µg/mg and 637 µg/mg
COc1ccc(NC(=O)c2ccc(-n3cc(CNc4nc(OC)nc(OC)n4)nn3)cc2)cc1,MTT,"normal colonocytes, rat",72 h,,maximum non-toxic concentration,31.43 ± 0.23 nM
N#Cc1ccn2c(-c3ccncc3)c(-c3ccc(F)cc3)nc2c1,"kinase binding, competitor, MIB/MS competition, refers to: HST7",Candida albicans cell lysate,10 µM,baseline: DMSO,log2 fold change,-0.303
CC[C@@H](C)[C@@H](NC(=O)[C@@H](Cc1ccc(O)cc1)NC(=O)[C@H]1CCCN1C(=O)[C@@H](CCCNC(=N)N)NC(=O)[C@H](N)Cc1c[nH]cn1)C(=O)N[C@H](C)C(=O)N[C@H](Cc1c[nH]cn1)C(=O)N[C@H](CCCNC(=N)N)C(=O)N[C@@H](C(=O)N[C@H](Cc1ccc(O)cc1)C(=O)N[C@H](CO)C(=O)N[C@H](Cc1ccccc1)C(N)=O)C(C)C,ex vivo flow cytometry,"GL261-Luc brain tumour mice, cervical lymph node",dose not given,,IFN-γ+ CD8+ T cell frequency,3.2% and 4.07% and 4.04% and 4.72%
C=CC[C@@H]1/C=C(\C)C[C@H](C)C[C@H](OC)[C@H]2O[C@@](O)(C(=O)C(=O)N3CCCC[C@H]3C(=O)O[C@H](/C(C)=C/[C@@H]3CC[C@@H](O)[C@H](OC)C3)[C@H](C)[C@@H](O)CC1=O)[C@H](C)C[C@@H]2OC,,"rhesus monkey kidney transplant, kidney allograft",dose not given,direction not given,Banff mm score,0
CCc1c(C)nc(-c2ccc(Cl)s2)nc1Nc1ccc(CC(=O)O)cc1,refers to: PDE4A,"C57BL/6J mice, MCD diet, liver","intraperitoneal, 0.3 mg/kg daily, MCD diet 6 weeks, dosed last two",baseline: vehicle,mRNA level,increased
OC(CCN1CCCCC1)(c1ccccc1)C1CC2C=CC1C2 (stereo not shown),resting-state EEG,healthy elderly humans,"oral, 2 mg, eyes closed, LS mean",,EEG Beta2-power Pz-O2,1.1 µV²
Cc1ccc(C(=O)Nc2ccnc(S(N)(=O)=O)c2)c(N2CCCC(F)(F)CC2)n1,,"Macaca mulatta, C-nociceptors","intravenous, 0.6 mg/kg bolus then 0.8 mg/kg/h, 60 min",,activity-dependent slowing,79.6 ± 3.58 % baseline
CC[C@@H]1[C@H](F)C(=O)N[C@@H]1COc1nccc2cc(C(N)=O)c(OC)cc12,"ATP-site probe binding, ActivX profiling, refers to: PKD1, PKD2",THP-1 cell lysate,"0.04 mM, Lys2 site",,inhibition,-3.5%
CCOCc1nc(O)c(-c2nnc(Cc3ccc(Cl)cn3)o2)c(O)c1-c1c(OC)cccc1OC,,instrumented anaesthetised rat,"intravenous infusion, 1 µg/kg/min for 15 min, 15 min",baseline: baseline,dP/dtmax change,8.8 ± 0.8%
NCC(=O)Nc1cncc(-c2nn3c(=O)cc(N4CCNCC4)nc3s2)c1,"ADP-induced platelet aggregation, light transmission aggregometry","human, stable CAD on aspirin, platelets ex vivo","subcutaneous, 0.075 mg/kg, 30 min post-dose, with: ADP 20 µM",,median inhibition,85%
CN[C@@H]1COc2c(S(=O)(=O)NC(=O)Nc3c4c(cc5c3CCC5)CCC4)cnn2C1,refers to: IL-1β,"human participants, whole blood ex vivo","900 mg single dose, 48 h, with: LPS/ATP",baseline: baseline,inhibition,48.4%
COc1ncc(-c2nc3c(n2C(C)C)[C@H](c2ccc(Cl)cc2)N(c2cc(Cl)cn(C)c2=O)C3=O)c(OC)n1,International Working Group criteria,human acute myeloid leukemia patients,"oral, 150 mg, response CRi, high-dose, other doses",,best overall response,16.7%
CC(C)NCC(O)c1ccc(O)c(O)c1 (stereo not shown),,"ventricular cardiomyocytes, C57BL/6 mouse","dose not given, 0.232 s",,sarcomere length,1.53 µm
N#Cc1ccc2c(c1)[C@H]1CCCN(C(=O)c3ccc4[nH]cnc4c3)[C@H]1C2,refers to: FPG,human,"80 mg once daily, day 28, adjusted mean",,change from baseline,8 mg/dL
C[C@@H](NC(=O)N1C(=O)[C@H](Cc2ccnc(N)c2)[C@H]1C(=O)O)C1CCCCC1,,human,"iv infusion, 1.0 mg/kg/h, 24 h, unit not given",baseline: baseline,PT Emax,1.04
Cc1noc(C)c1-c1cc(C(O)(c2ccccn2)c2ccccn2)c2nc(C3CC3)[nH]c2c1,refers to: HEXIM1 expression,"human, peripheral blood","9 mg, day 1, 1604 study",,maximum induction,54%
COc1ccc(-c2cncc(N[C@@H](C)c3cccc(NC(=O)c4cncc(C)c4)c3)n2)cc1OC,refers to: rno-miR-128-3p,"rat SU5416/hypoxia model, lung",dose not given,baseline: SU5416/hypoxia vehicle,fold change,0.57
Cc1cn(-c2cc(NC(=O)c3ccc(C)c(Nc4nccc(-c5cccnc5)n4)c3)cc(C(F)(F)F)c2)cn1,refers to: DOPAC,"human, cerebrospinal fluid","dose not given, between 12 and 6 months, unit not given",baseline: placebo,median difference in change,0.12
CC(c1cc2ccccc2s1)N(O)C(N)=O (stereo not shown),,human blood,"3 µM, with: A23187",,TXB2 level,746 ± 381 pg/mL
N=C(N)NCCC[C@H](NC(=O)[C@H](CCCNC(=N)N)NC(=O)[C@H](CCCCN)NC(=O)[C@H](CCC(N)=O)NC(=O)[C@H](CCCCN)NC(=O)[C@H](Cc1ccc(O)cc1)NC(=O)[C@@H](N)CCCCN)C(=O)N[C@@H](CO)C(=O)N[C@@H](Cc1ccc(O)cc1)C(=O)N[C@@H](CCCCN)C(=O)O,,"human, dentin hypersensitivity patients, aged ≥sample A years","topical to tooth, 5 µg/tooth, day 36, phase trial",direction not given,change from baseline in VAS score,-11.5 ± 16.3
CCN(Cc1nc2c(N)nc3cc(-c4cc[nH]n4)ccc3c2[nH]1)C(C)=O,Kaplan-Meier,advanced solid tumour patients,"dose not given, 12 months",,overall survival rate,23%
N#Cc1ccc2c(c1)[C@H]1CCCN(C(=O)c3ccc4[nH]cnc4c3)[C@H]1C2,,"human, plasma","240 mg, day 15, 360 h",baseline: placebo and baseline,change in HOMA-IR,-13.5%
Cc1coc([C@H]2C[C@H]3[C@@H](CF)SC(N)=N[C@@]3(c3ccc(F)cc3F)CO2)n1,refers to: Aβx-42,"Mus musculus wild-type, brain","subcutaneous, 80 mg/kg, 5 h",,Aβ42 level,0.52 ng/g
NC(=O)c1cnc2[nH]ccc2c1N[C@@H]1[C@@H]2CC3C[C@H]1C[C@@](O)(C3)C2,"CD8+ effector T cells, flow cytometry","Japanese humans, peripheral blood",60 mg single dose,baseline: baseline,percent change,0.38%
CCN1CCN(Cc2ccc(Nc3ncc(F)c(-c4cc(F)c5nc6n(c5c4)[C@H](C)CCC6)n3)nc2)CC1,,human advanced solid tumours,"200 mg, phase Ia monotherapy RECIST 1.1",,median progression-free survival,5.8 months
C[C@H](Oc1ccc(Br)cc1-c1ccon1)C(=O)O,first response peak,"human, tibialis anterior muscle","100 mg, 30-15 Hz, SAD",,difference from placebo,14.4%
COc1cc2cc(-c3ccc(CC(=O)Nc4cc(C(C)(C)C(F)(F)F)no4)cn3)cnc2cc1OC,RECIST v1.1,human RET-altered solid tumours,"11 50 mg tablets, phase I",,disease control rate,78%
COc1cc(Nc2ncc3c(n2)-c2ccc(Cl)cc2C(c2c(F)cccc2OC)=NC3)ccc1C(=O)O,,"mouse, NB-1643 neuroblastoma xenograft","oral, 10.4 mg/kg, day 14",baseline: vehicle,relative tumour volume T/C,0.9
Cc1cc([C@H]2C[C@H]3[C@@H](CF)SC(N)=N[C@@]3(c3ccc(F)cc3F)CO2)on1,refers to: Aβx-42,"Mus musculus wild-type, brain","subcutaneous, 100 mg/kg, 9 h",,Aβ42 level,0.51 ng/g
N=C(N)NCCC[C@@H](NC(=O)CCOCCOCCNC(=O)[C@H](CCCCNC(=O)CC[C@H](NC(=O)c1ccc(NCc2cnc3nc(N)[nH]c(=O)c3n2)cc1)C(=O)O)NC(=O)CO/N=C/[C@H](F)[C@@H](O)[C@H](O)[C@H](O)CO)C(=O)NCC(=O)N[C@H](CC(=O)O)C(N)=O [fluorine-18 labelled],,"nude mice, MDA-MB-231 xenograft, tumour","dose not given, 2.5 h, with: unlabelled folic acid 200 µg",baseline: unblocked,reduction of tumour uptake,~58%
COc1cccc2c1C(=O)c1c(O)c3c(c(O)c1C2=O)C[C@@](O)(C(=O)CO)C[C@@H]3O[C@H]1C[C@H](N)[C@H](O)[C@H](C)O1,MTT,"normal colonocytes, rat",72 h,,maximum non-toxic concentration,225 ± 18 nM
C[C@H]1C[C@H]2CSC(N)=N[C@@]2(c2nc(NC(=O)c3ccc(OC(F)F)cn3)cs2)CO1,refers to: total Aβ,"healthy adults, plasma","50 mg once daily, day 10",baseline: placebo,percent change from baseline,-65.3%
Oc1ccc(Br)cc1C=NCCN1CCOCC1,superoxide scavenging,,40 µM,,inhibition,5.51%
O=C(O)CNC(=O)Cc1ccccc1,,"ventricular cardiomyocytes, C57BL/6 mouse","dose not given, 0.264 s",,sarcomere length,1.66 µm
CC#CC(=O)N[C@H]1CCCN(c2c(F)cc(C(N)=O)c3[nH]c(C)c(C)c23)C1,,"healthy volunteers, single ascending dose, serum","0.3 mg, day 10",,change from baseline in serum IgM,16.7 mg/L
O=C(O[C@@H]1[C@@H](O)[C@H](Oc2cc(O)c3c(c2)O[C@H](c2ccccc2)CC3=O)O[C@@H]2COC(=O)c3cc(O)c(O)c(O)c3-c3c(cc(O)c(O)c3O)C(=O)O[C@@H]12)c1cc(O)c(O)c(O)c1,laser-injury thrombosis model,"mouse, cremaster arterioles","intravenous infusion, dose not given",baseline: control,platelet accumulation,18 ± 6.2%
Cc1cc([C@H]2C[C@H]3[C@@H](C)SC(N)=N[C@@]3(c3ccc(F)cc3F)CO2)on1,refers to: Aβx-42,"Mus musculus wild-type, brain","subcutaneous, 50 mg/kg, 9 h",,Aβ42 level,0.24 ng/g
C[C@H]1O[C@@H](O[C@H]2CC[C@@]3(C)[C@@H](CC[C@]4(C)[C@@H]3C=C[C@]35OC[C@@]6(CCC(C)(C)C[C@H]63)[C@@H](O)C[C@]54C)[C@]2(C)CO)[C@H](O)[C@@H](O[C@@H]2O[C@H](CO)[C@@H](O)[C@H](O)[C@H]2O)[C@H]1O,Western blot,"mice, normal diet, liver","dose not given, high dose",baseline: control mice,SIRT1 to β-actin ratio,0.86 fold change and 0.967 fold change and 1.1 fold change
FC(F)(F)Oc1cccc(-c2cnc3ccc(-c4ccncc4)nn23)c1,,"MDA-MB-231 xenograft, NSG mouse","oral, 10 mg/kg daily, day 23",higher = larger tumour,tumour size,0.307 a.u. and 0.325 a.u. and 0.256 a.u. and 0.126 a.u. and 0.211 a.u.
CC(=O)OC(C)C[N+](C)(C)C (stereo not shown),,rat colon ex vivo,1 nM to 10 µM,,contraction AUC,increased
CN(C(=O)n1cnc(-c2ccc[n+]([O-])c2)c1)C1CCCCC1,refers to: OEA,"human, plasma",40 mg single dose,,AUC(0-t),867 ng·h/mL
Cc1n[nH]c2ccc(-c3cc(OC[C@@H](N)Cc4ccccc4)cnc3-c3ccoc3)cc12,"kinase binding, competitor, MIB/MS competition, refers to: HST7",Candida albicans cell lysate,10 µM,baseline: DMSO,log2 fold change,-1.68
